Measurements pooled from the literature.
A part holds a random share of what one study measured.

Series 1
Target: Protein max, full length (MAX, Homo sapiens, UniProt P61244-2, residues 1-151)
Method: protein-binding microarray
Form: double-stranded DNA, one strand shown
Medium: in vitro
Concentration: not given
Setting: k-mer, scored over probes, only values ≥0.25
Reading: higher = stronger binding
With `GGCGTGTA` the E-score was 0.34.
`AGCAGGTG` gave an E-score of 0.407.
`CATGCGGG` has an E-score of 0.428.
`GTGGCGCA` has an E-score of 0.355.
With `CCAAGCAC` the E-score was 0.256.
`CGCGCACA` has an E-score of 0.303.
For `CACGAGCG`, the E-score was 0.35.
With `ACACCTGG` the E-score was 0.358.
`ACATGATG` gave an E-score of 0.315.
With `ACAGGTGA` the E-score was 0.306.
The E-score of `GCACGCCA` is reported as 0.357.
With `ACGTGTAT` the E-score was 0.447.
The E-score of `ATATGGCA` is reported as 0.265.
`ACGTGCTG` has an E-score of 0.427.
`ACCCACCT` has an E-score of 0.263.
With `AGCACACG` the E-score was 0.379.
`GAACACGC` has an E-score of 0.426.
`CACACCAC` gave an E-score of 0.305.

Series 2
Target: RNA binding protein fox-1 homolog 2, RRM domain, GST-SBP tag (RBFOX2, Homo sapiens, UniProt O43251-10, residues 100-194)
Method: RNA Bind-n-Seq
Form: RNA
Medium: in vitro
Concentration: 365 nM
Setting: natural RNA segment, single round, ends assumed
Relative to: no-protein control
Reading: higher = stronger binding
All sequences stand within: GGGAGUUCUACAGUCCGACGAUC … UGGAAUUCUCGGGUGCCAA
Residues (chain): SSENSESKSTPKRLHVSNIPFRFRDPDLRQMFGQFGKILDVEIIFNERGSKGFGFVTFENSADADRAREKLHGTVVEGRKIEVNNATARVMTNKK
Under “RBNS enrichment (R)”, `UCGUACUGAGCAUCCUCAUUUCAACGCAGUAUACGCUCUAGUUAUCAUGUGUAACGUGGGUCUGUUUAGCUGAGAUAGACUAGAGGAGGACACUAGAGAUGCCCAUUCCU` is recorded as 0.24.
Under “RBNS enrichment (R)”, `AGGUUGGAAAAUGAACUACUCAAGAUAGUCACGAAAAUACUGAAAGUUUGAUUUUUCUUUCCAUAUUUGAAUUAAUUUUUUCUGUUUGACUGGAAGGGGUUUUUGUAUAA` is recorded as 0.626.
`GGCCAGUGGGGAGCUGGAAAAAACAAGGCAGCCUUUAGGAAGGCCAUGGUGCAUGUGUGUGCAUGCGUGUAUGUGCAGCCGCCCUCCCUCACUUCAGGAGCAAGCUGUUU` — result for “RBNS enrichment (R)”: 3.39.
Under “RBNS enrichment (R)”, `AUGCCGUUUUCUUACACUACCAGUGGAUGUCCAGACAUGCUCUUAGUCUACUAGAGAGGUGCUGCCUUUUCUAAGUCAUAAUGAGGAACAGUCCCUUAAUUUCUUGUGUG` is recorded as 0.395.
For `GAGGGUGCUCUGGGCUGGAGGGAGCAGGGACACUCUCAGCCAAAUGGAGCAGUGGGGAGACACCAGGGCUGCAUUAUUUGAAUUAUUUUGCAGCCACAUGGGACUUUUCU`, “RBNS enrichment (R)” read 0.601.
For `ACCAAAAGGGGAUUUUUGAAAACGAGGAGUUGACCAAAAUAAUAUCUGAAGAUGAUUGCUUUUCCCUGCUGCCAGCUGAUCUGAAAUGUUUUGCUGGCACAUUAAUCAUA`, “RBNS enrichment (R)” read 0.314.
`CCUGACCCCACCUAUCGUCUUCUGCUAAGGGACAGUACAGAAGCUGCUGUCUGGGCUGUAAAGUCUGGAAGGCAUUGGAACUUCUCUGUGGAGUGUAUUAGCAUUCAUCU` — result for “RBNS enrichment (R)”: 0.396.
`UCAUAUUUGUUGUAUAAACUGGUUUAAUACAUUUGGAACAUAGUUGGAUUACAUUCAUUUCCUGGGAAAGCUAGCUUACCAUACAUUCAAGUUUAUAAAACAAUUUGCCA` — result for “RBNS enrichment (R)”: 0.588.
For `GUACAGGAAGAGGCAGGCACUGGCUGGCUCAGCUCCACUCGGGUGGAGUGGAAGUGGCCAGACCAUUUAGACGGACAGGGUCCUCACCCUACCCCUUUCCUGUGAGGCAG`, “RBNS enrichment (R)” read 2.15.
`CUGUUUUUUGGGGUUUUUUUUUUUUAAGAAAUAUUUUCACUGGUUUUCUGUGACUCUCUAAACACUUCAUCGAAACUAGAAGACUGAAUUAUGAGGAAACUAUUUGGAUU`: “RBNS enrichment (R)” 0.483.
`CCAGGGACCACUGGGUGAGAGAGGAAUAAGGCCCAGAGCGAGGAAAGGAUUUUACCAAAGCAUCAAUACAACCAGCCCAACCAUCGGUCCACACCUGGGCAUUUGGUGAG` — result for “RBNS enrichment (R)”: 0.68.
Under “RBNS enrichment (R)”, `CGAUGCGGGUCCUAGGAGAAAAAGUCCUACUUUUCUGGGUCCCCAGGUGCAGCACCUCCCGGAGACUGUUUCUCCCAUGGCCUCCUGAGUGAUGGGCCCUGCCUCCCUGU` is recorded as 0.388.

Series 3
Target: Histone acetyltransferase KAT6A, winged helix 1, GST fusion (KAT6A, Homo sapiens, UniProt Q92794, residues 1-85)
Method: protein binding microarray
Form: double-stranded DNA, one strand shown
Medium: in vitro
Concentration: not given
Setting: 8-mer, flanks averaged, mean of 2 arrays, mostly near background
Relative to: not given
Reading: higher = stronger binding
Residues (chain): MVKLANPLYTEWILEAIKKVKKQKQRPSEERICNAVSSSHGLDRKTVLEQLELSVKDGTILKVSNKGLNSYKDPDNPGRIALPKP
With `CGACTCCC` the E-score was 0.0101.
With `ATCGAGTC` the E-score was 0.00885.
`AGTCGAAG` gave an E-score of -0.187.
For `GTCGTAAC`, the E-score was -0.0142.
For `CGAAGAAG`, the E-score was -0.151.
For `CAGCGCGA`, the E-score was 0.326.
The E-score of `AGCTGCTG` is reported as -0.197.
`CCTCGATC` gave an E-score of -0.193.
`ACTGCAGA` gave an E-score of -0.221.
`CCCTGACA` has an E-score of -0.0992.
The E-score of `GTTTTTCA` is reported as -0.158.
`AGGGCAAT` gave an E-score of -0.0262.
`AGAATGCC` gave an E-score of 0.103.
With `GAACTGCA` the E-score was -0.124.
The E-score of `CTGGCGTA` is reported as 0.0133.
`ATGGCGGC` has an E-score of 0.287.
`ACGACGAT` has an E-score of -0.00947.
With `GATCTACC` the E-score was -0.0966.
`CCACTCCA` has an E-score of -0.196.
`AGAGTTCA` gave an E-score of -0.272.
For `CAGATAAC`, the E-score was -0.114.
`CCGAGTGC` gave an E-score of 0.182.
The E-score of `CAGTATAA` is reported as -0.0356.
`TCGGTCAA` gave an E-score of -0.0518.
The E-score of `CCTACCTA` is reported as -0.23.

Series 4
Target: RING finger protein unkempt homolog, zinc fingers 1-6, GST-SBP tag (UNK, Homo sapiens, UniProt Q9C0B0, residues 30-357)
Method: RNA Bind-n-Seq
Form: RNA
Medium: in vitro
Concentration: not given
Setting: RNA with constant flanks, human and mouse sites, ends assumed
Relative to: input RNA pool
Reading: higher = stronger binding
All sequences stand within: GGGAGUUCUACAGUCCGACGAUC … CAACAGAGGAUUGAGCAUCA
Construct (chain): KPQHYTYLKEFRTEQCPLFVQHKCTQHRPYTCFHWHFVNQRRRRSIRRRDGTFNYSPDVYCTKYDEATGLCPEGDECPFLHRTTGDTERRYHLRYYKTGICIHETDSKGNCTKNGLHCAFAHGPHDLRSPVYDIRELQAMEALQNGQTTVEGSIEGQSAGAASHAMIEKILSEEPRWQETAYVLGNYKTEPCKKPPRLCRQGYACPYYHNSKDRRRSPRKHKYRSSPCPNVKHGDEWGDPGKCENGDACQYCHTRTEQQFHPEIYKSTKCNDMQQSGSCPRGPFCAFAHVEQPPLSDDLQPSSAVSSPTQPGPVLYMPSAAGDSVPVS
For `CAAGCCAGUCCUGUUGUGAUUUGUCCAUCGAGUGUGUGUGUGUGUGUGUGUGACCAUCAGUUUAGCCCAGAGUGGACAGGGUCCAGGCAUACCCACCCUGGCCCAUGCUCCUCUAGGACA`, the bound/input enrichment was 0.298 ratio.
For `CCUUUAUAUCCUCAGCCCAAGAGACGGUGUUCCCCUGCGACCUCCAAGCCUGGAAUUGUGCAUAGCCUGGGUCUUGUAUCUUUGUAUAACGGAUGUUAUUUGUACGAAGGGCAGUUCGUA`, the bound/input enrichment was 0.469 ratio.
`UUGGCUCUGGACUGGGCAUUGGAAGGGAAUGAGGGAGGAGGGGGCAGAAGCAGGCCGGGGCUGGCUUUGCUGCCUCUCCCAGGAGACAGGGCUACAGCUUCCAAACCUUUUGUGUGUUGA` gave a bound/input enrichment of 0.25 ratio.
For `GAGGACCCUUCUUCUCCGCGAGCAAGCCCUGCCCACUCGCCCCGGGAAAAUGGAAUCGACAAAAAUCGCCUGCUAAAGAAGGAUGCUUCUAGCAGUCCAGCUUCCACGGCCUCCUCGGCA`, the bound/input enrichment was 0.0991 ratio.
`CCUAAUGGUGCAACCUUGCUGGUUGGUGGUUUUGGGCUGUGUGGUAUUCCAGAGAAUCUUAUAGGAGCUUUACUGAAGACUGGAGUAAAAGAUCUAACUGCAGUCAGCAACAAUGCAGGG` gave a bound/input enrichment of 0.159 ratio.
For `AGGGGCUCCAGACACCAGGGUACGGGGUGGGGACUGAUUAUAUUGCCAAAGGGUUCAACUUCUUUAACAAGCCCCCCCGUUUCCCCUGACCUUCACGAAAGCCGAAGGAGGCGGGGAAAG`, the bound/input enrichment was 0.148 ratio.
For `CCUAAUUCUCACUACCUCCGAUUACCUUUUAUUUUGAAUUGUCGCAUCUGCAGCACUGAGUGUUCACACUGUCCAACAGUACUAAGUUGUUGGUGUGGUCACUGCCCUUUCAUUUCCUUU`, the bound/input enrichment was 0.338 ratio.
For `ACUAGAAUCCCGUCGUAAAUACAUGGCUCGUCUAAUUCAGAAGCUUCGCUAUAGGUGAGCAAGUCUUGGCUUGGUGUGUAUCUUACUGUUUUUGUUGCAUUUAGGAUGCUGCAGCUGAUU`, the bound/input enrichment was 0.303 ratio.
With `GAAAGAAAUGAAUGGAAAAAAAGGAGUGUCCAUCCUUUCCAUCUAUAAGUAUGUCAGUUCUAUAUAUAGAUACGAUGUUCAACGGAACAGGAGUCUUUUGAAACGGAUGCUGAAAUGUUU` the bound/input enrichment was 0.183 ratio.
The bound/input enrichment of `CCUCCACUUCCCAGGGAAGAUAAGAGGAAAGUAACAGUUUCAUUACACACACUCACAUGUGUGAGCACAUACAAAUGUGCACACACACACACACAACUGUUAGGAAUAUGUAAACAUAAU` is reported as 0.608 ratio.
`UAUCACAAUGUAUACUCUCGAGAUCCUAAUUAUCUGAAUUUGUUCAUUAUCGUAAUGGAGAAUAGAAAUCUCCACAGUCCUGAAUAUCUGGAAAUGGCUUUGCCAUUAUUUUGCAAAGCG` has a bound/input enrichment of 0.239 ratio.

Series 5
Target: Interferon regulatory factor 7, full length, phosphomimetic (IRF7, Homo sapiens, UniProt Q92985, residues 1-503, S471D/S472D/S475D/S476D/S477D/S483D/S484D/S487D)
UniProt Q92985, sequence (whole entry, unmodified, looked up): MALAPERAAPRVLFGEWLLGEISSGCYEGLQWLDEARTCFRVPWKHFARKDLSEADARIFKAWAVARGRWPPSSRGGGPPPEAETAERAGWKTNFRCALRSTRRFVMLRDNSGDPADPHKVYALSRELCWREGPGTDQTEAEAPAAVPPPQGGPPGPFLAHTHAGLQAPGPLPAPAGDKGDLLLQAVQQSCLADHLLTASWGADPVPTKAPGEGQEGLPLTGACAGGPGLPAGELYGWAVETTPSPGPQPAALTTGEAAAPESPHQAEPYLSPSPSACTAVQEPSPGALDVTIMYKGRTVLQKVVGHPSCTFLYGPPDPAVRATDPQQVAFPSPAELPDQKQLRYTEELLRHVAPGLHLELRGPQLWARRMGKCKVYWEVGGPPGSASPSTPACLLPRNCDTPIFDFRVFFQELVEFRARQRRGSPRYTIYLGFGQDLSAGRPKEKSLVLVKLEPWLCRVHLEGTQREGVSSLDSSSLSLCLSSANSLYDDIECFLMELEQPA
Method: protein-binding microarray
Form: double-stranded DNA, one strand shown
Medium: in vitro
Concentration: 2200 nM top
Setting: 60-bp whole probe
With: salmon DNA 0.4 mg/ml
Relative to: random background probes
Reading: higher = stronger binding
All sequences stand within: GCCTAGCAC … GTCTTGATTCGCTTGACGCTGCTG
`TCATCTACAGGGTTTCACACTGTGCTA`: “fitted relative affinity” 0.925 z-score.
Under “fitted relative affinity”, `TCATTTTTTTTTTTTCTACTGTGCTAG` is recorded as 2.66 z-score.
`TCAACTTTCTTTAACATACTGTGCTAG`: “fitted relative affinity” 1.01 z-score.
`GTTTTTCTCCTATTTAAGACGTGCTAG` — result for “fitted relative affinity”: 2.63 z-score.
`TCATATATGTGTATATAACTGTGCTAG` — result for “fitted relative affinity”: 1.01 z-score.
`TCATCTTATCCTATCAGACTGTGCTAG`: “fitted relative affinity” 2.31 z-score.
For `GGCCCTATAGGTTTCTATATGTGCTAG`, “fitted relative affinity” read 0.425 z-score.
Under “fitted relative affinity”, `TTAGATCTGGGGTTTCGATTAGTGCTA` is recorded as 2.48 z-score.
`TCAAAAGTCTTTTATGGTACTGTGCTA`: “fitted relative affinity” -0.472 z-score.
`CTTTATGTACTCTCTCCATGTGTGCTA` — result for “fitted relative affinity”: 1.74 z-score.
Under “fitted relative affinity”, `GACGTACTGGACACTGGGGACGTGCTA` is recorded as -0.421 z-score.
Under “fitted relative affinity”, `CATCCAGCAGAGAGCCTCAGGTGCTAG` is recorded as 0.0691 z-score.
For `CACGAACTGGGGTATCGAGACGTGCTA`, “fitted relative affinity” read -0.239 z-score.
Under “fitted relative affinity”, `TTCGGTTTCCTTTCCCTTTAGTGCTAG` is recorded as 7.58 z-score.
For `TCAGATTTCCTTCACCCACTGTGCTAG`, “fitted relative affinity” read 2 z-score.
`GAAGATGTCAAACTCACTCAGTGCTAG`: “fitted relative affinity” -0.182 z-score.
`GACGGTATCGGTTTCAGGACGTGCTAG`: “fitted relative affinity” 2.29 z-score.
Under “fitted relative affinity”, `TTAGCTCTCGGTTTCGGTTAGTGCTAG` is recorded as 6.73 z-score.
`TAAGGACTGCTTTTCCTTTAGTGCTAG` — result for “fitted relative affinity”: 1.5 z-score.
